Published values collected from several papers.
Lines come from different studies, so protocols differ. “And” joins repeats or separate records; there may be more than shown. Numbers after ± are the reported error.

COC1OC(C)C(OC2OC(C)C(OS(=O)(=O)O)C(OC3OC(C)C(OC4OC(C)C(OS(=O)(=O)O)C(OC5OC(C)C(OC6OC(C)C(OS(=O)(=O)O)C(OS(=O)(=O)O)C6O)C(OS(=O)(=O)O)C5O)C4O)C(OS(=O)(=O)O)C3O)C2O)C(OS(=O)(=O)O)C1O (stereo not shown) — APTT prolongation (human plasma; 128 µg/mL; baseline: control): 1.2 fold
CCCCCc1ccc(S(=O)(=O)N2CC2C(=O)OC)cc1 (stereo not shown) — tumour volume (mouse, Lewis lung carcinoma; intraperitoneal, 5 mg/kg, 16 doses, day 10): 189 mm3
COCCOCCOCCNC(=O)Cc1cc(CC(=O)N[C@H]2C[C@H]3C(=O)Nc4cc(OCCOCCOCCOC)cc(n4)C(=O)N4CCC[C@H]4C(=O)Nc4cc(OCCOCCOCCOC)cc(n4)C(=O)N4CCC[C@H]4C(=O)Nc4cc(OCCOCCOCCOC)cc(n4)C(=O)N3C2)cc(CC(=O)N[C@H]2C[C@H]3C(=O)Nc4cc(OCCOCCOCCOC)cc(n4)C(=O)N4CCC[C@H]4C(=O)Nc4cc(OCCOCCOCCOC)cc(n4)C(=O)N4CCC[C@H]4C(=O)Nc4cc(OCCOCCOCCOC)cc(n4)C(=O)N3C2)c1 — ΔG (anion binding, ITC; water/acetonitrile 95 vol% (98.2 mol%); 298 K, together with: sodium iodide): -5.14 ± 0.0717 kcal/mol
CCCC[C@@H](CSS(=O)(=O)O)NC(C)C — spleen weight (Swiss Webster mice, Schistosoma mansoni-infected; 100 mg/kg, perfusion day 57 post-infection): 0.6 g
COC1OC(C)C(OS(=O)(=O)O)C(OC2OC(C)C(OS(=O)(=O)O)C(OS(=O)(=O)O)C2O)C1O (stereo not shown) — APTT prolongation (human plasma; 128 µg/mL; baseline: control): 1.2 fold
COc1cc(O)ccc1CCC(c1ccc(O)cc1)c1cc2c(c(C)c1O)OC(c1ccc(O)cc1)CC2 (mixture of isomers) — arachidonic acid level (human blood; 0.3 µM, together with: A23187): 87900 ± 9780 pg/mL
COc1cc(CN(C)CCc2ccccc2)ccc1OCc1ccccc1 — translation activity (Trypanosoma cruzi; reporter mRNA translation, inhibitor, item: Renilla luciferase mRNA; cell-free extract; concentration not given, test 2; baseline: positive over negative control): 122% and 130%
CCC(=O)N[C@@H](C)C(=O)OCC(=O)N[C@@H](C)C(=O)O — chain scission rate constant (water; pH 3, 25 °C): 0.0003 h⁻¹
COC1CN([C@H]2CC[C@H]([C@@]3(C)Oc4c(Cl)cc(C(=O)NCc5c(SC)cc(C)[nH]c5=O)c(C)c4O3)CC2)C1 — log2 fold change (RNA-seq, item: FAM110B mouse homolog; mouse, HT-1376 xenograft, whole blood; dose not given; baseline: vehicle): 1.36
CCOC(=O)CCCCC1NCCc2ccc(O)c(O)c21 (stereo not shown) — Fe2+ chelation (ferrozine; cell-free; 100 µM, DMSO solvent): 94.97 ± 0.93%
CC(CCC(=O)NCc1ccc(C(=O)NO)cc1)C1CCC2C3C(O)CC4CC(O)CCC4(C)C3CCC12C (stereo not shown) — relative abundance (item: CA; PCK rat (Pkhd1 mutant), liver; oral gavage, dose not given, 5 months; baseline: total bile acids): 1.88%
C=C(C)C1CC=C(CN2CCN(Cc3ccccc3)CC2)CC1 (stereo not shown) — translation activity (Trypanosoma cruzi; reporter mRNA translation, inhibitor, item: Renilla luciferase mRNA; cell-free extract; concentration not given, test 2; baseline: positive over negative control): 109% and 100%
CC(=O)[O-].O.[Cu+2].[O-]c1ccc(Br)cc1C=NCCN1CCOCC1 — inhibition (superoxide scavenging; 160 µM): 49.2%

Excerpt of the above:
COC1CN([C@H]2CC[C@H]([C@@]3(C)Oc4c(Cl)cc(C(=O)NCc5c(SC)cc(C)[nH]c5=O)c(C)c4O3)CC2)C1 — log2 fold change (RNA-seq, item: FAM110B mouse homolog; mouse, HT-1376 xenograft, whole blood; dose not given; baseline: vehicle): 1.36
COC1OC(C)C(OS(=O)(=O)O)C(OC2OC(C)C(OS(=O)(=O)O)C(OS(=O)(=O)O)C2O)C1O (stereo not shown) — APTT prolongation (human plasma; 128 µg/mL; baseline: control): 1.2 fold
